Results pooled from the literature.
Each numbered part is a random draw from the data of one study; scales do not carry over between parts.
Sequence of UniProt O14757 (whole entry, looked up): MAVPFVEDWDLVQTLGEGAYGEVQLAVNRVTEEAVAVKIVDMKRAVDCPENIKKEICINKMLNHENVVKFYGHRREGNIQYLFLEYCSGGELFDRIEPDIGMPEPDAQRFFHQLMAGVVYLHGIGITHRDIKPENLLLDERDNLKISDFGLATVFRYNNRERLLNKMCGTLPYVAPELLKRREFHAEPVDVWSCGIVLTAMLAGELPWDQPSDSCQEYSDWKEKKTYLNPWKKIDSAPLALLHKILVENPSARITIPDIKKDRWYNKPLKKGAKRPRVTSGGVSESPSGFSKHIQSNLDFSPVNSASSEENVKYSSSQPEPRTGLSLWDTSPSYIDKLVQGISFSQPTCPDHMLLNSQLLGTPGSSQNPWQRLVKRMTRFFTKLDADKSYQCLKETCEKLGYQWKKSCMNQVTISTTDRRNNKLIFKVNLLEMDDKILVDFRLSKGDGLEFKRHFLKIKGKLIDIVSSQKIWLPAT
Sequence of UniProt P35916 (whole entry, looked up): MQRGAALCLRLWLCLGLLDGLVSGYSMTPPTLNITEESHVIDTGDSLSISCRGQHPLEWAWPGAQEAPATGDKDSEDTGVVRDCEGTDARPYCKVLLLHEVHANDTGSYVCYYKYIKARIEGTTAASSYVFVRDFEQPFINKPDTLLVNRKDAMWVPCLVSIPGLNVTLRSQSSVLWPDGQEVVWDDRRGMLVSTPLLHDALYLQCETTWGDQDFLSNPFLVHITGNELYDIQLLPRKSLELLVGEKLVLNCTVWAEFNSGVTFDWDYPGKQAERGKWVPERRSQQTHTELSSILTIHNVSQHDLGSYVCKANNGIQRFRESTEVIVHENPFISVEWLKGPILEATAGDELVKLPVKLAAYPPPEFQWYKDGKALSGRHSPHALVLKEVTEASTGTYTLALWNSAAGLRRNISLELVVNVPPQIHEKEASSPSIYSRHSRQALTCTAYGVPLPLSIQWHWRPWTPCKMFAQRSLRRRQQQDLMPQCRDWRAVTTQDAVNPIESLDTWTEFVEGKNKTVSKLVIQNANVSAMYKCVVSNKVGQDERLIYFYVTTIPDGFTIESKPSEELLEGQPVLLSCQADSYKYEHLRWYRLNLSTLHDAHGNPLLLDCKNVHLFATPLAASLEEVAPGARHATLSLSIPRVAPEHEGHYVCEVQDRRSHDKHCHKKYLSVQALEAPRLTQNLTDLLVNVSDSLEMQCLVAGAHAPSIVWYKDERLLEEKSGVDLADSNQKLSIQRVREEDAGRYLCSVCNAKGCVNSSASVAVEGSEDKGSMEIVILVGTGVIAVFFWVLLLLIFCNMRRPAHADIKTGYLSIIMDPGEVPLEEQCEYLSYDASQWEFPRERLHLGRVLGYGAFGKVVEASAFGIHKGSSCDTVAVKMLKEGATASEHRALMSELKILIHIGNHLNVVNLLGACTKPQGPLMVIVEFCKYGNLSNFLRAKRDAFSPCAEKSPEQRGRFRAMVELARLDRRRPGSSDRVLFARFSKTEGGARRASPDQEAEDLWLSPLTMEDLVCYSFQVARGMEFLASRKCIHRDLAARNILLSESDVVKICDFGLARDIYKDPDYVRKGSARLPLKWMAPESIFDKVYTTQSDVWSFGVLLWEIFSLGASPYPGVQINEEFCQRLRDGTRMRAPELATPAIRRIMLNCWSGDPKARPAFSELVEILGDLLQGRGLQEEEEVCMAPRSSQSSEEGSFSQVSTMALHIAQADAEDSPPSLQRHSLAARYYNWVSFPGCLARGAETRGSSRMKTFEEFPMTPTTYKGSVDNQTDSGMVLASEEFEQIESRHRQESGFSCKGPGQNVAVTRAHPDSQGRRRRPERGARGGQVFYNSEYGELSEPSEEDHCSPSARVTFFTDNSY
Sequence of UniProt P00519 (whole entry, unmodified, looked up): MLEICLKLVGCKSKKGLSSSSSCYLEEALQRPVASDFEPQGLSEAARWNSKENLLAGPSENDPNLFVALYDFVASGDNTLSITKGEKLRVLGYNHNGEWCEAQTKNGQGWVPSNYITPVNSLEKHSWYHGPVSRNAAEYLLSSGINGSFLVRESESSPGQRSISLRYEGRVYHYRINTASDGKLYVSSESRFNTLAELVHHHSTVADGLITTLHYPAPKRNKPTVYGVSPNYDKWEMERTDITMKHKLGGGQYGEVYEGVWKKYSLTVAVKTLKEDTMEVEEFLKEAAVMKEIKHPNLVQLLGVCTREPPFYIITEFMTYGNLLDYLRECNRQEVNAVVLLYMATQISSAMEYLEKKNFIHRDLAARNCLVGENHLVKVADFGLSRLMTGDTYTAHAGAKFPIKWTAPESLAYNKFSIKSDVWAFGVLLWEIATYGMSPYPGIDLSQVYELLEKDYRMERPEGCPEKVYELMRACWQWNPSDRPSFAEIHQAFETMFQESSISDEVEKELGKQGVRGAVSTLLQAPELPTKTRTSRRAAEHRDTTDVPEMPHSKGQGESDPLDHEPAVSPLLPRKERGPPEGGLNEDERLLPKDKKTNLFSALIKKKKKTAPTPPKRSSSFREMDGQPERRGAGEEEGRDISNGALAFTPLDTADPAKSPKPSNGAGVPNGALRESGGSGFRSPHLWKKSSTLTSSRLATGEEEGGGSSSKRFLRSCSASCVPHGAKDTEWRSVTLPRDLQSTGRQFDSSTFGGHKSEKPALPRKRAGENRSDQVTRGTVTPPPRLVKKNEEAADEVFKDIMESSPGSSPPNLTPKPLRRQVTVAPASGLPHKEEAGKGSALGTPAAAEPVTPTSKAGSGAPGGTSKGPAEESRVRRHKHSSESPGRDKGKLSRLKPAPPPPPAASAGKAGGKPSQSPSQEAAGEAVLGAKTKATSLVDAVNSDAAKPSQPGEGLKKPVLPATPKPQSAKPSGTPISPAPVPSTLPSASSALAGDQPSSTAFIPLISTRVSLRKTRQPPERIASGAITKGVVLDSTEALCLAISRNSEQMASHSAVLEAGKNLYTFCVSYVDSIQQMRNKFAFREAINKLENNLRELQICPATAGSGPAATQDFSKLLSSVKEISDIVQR
Sequence of UniProt P11802 (whole entry, looked up): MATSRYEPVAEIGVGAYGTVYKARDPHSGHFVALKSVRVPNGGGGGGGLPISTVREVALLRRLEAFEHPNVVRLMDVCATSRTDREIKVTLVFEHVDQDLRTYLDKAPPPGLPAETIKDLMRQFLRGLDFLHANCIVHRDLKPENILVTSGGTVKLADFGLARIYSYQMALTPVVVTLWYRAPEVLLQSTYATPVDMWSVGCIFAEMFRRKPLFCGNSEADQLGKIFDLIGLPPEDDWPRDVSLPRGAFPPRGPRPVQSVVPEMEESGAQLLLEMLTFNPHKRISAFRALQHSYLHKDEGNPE
Sequence of UniProt O75716 (whole entry, looked up): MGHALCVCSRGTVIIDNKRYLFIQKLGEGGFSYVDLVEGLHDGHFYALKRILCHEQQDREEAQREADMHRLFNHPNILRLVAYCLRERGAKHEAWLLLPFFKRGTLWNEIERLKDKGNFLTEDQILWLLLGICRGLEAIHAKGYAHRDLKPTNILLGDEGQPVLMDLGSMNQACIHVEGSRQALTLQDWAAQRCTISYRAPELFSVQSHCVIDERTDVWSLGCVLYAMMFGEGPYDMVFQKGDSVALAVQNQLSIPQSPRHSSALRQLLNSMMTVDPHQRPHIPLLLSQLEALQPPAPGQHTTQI
Sequence of UniProt O14730 (whole entry, looked up): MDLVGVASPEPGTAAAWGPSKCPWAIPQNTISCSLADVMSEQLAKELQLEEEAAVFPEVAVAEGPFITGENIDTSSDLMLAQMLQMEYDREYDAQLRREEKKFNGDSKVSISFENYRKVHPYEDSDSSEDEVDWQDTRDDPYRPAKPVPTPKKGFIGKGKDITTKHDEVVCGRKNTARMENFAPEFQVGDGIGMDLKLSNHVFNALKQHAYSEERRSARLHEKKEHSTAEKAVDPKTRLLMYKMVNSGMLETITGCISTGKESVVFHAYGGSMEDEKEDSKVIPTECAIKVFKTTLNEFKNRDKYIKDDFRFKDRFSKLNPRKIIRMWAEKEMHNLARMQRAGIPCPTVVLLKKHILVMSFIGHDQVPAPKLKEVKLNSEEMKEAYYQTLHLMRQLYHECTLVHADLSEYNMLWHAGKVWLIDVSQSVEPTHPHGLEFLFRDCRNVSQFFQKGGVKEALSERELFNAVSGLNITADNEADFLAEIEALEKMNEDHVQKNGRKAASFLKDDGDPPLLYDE

Study 1
Target: Mast/stem cell growth factor receptor Kit (KIT, Homo sapiens, UniProt P10721)
Sequence of UniProt P10721 (whole entry, looked up): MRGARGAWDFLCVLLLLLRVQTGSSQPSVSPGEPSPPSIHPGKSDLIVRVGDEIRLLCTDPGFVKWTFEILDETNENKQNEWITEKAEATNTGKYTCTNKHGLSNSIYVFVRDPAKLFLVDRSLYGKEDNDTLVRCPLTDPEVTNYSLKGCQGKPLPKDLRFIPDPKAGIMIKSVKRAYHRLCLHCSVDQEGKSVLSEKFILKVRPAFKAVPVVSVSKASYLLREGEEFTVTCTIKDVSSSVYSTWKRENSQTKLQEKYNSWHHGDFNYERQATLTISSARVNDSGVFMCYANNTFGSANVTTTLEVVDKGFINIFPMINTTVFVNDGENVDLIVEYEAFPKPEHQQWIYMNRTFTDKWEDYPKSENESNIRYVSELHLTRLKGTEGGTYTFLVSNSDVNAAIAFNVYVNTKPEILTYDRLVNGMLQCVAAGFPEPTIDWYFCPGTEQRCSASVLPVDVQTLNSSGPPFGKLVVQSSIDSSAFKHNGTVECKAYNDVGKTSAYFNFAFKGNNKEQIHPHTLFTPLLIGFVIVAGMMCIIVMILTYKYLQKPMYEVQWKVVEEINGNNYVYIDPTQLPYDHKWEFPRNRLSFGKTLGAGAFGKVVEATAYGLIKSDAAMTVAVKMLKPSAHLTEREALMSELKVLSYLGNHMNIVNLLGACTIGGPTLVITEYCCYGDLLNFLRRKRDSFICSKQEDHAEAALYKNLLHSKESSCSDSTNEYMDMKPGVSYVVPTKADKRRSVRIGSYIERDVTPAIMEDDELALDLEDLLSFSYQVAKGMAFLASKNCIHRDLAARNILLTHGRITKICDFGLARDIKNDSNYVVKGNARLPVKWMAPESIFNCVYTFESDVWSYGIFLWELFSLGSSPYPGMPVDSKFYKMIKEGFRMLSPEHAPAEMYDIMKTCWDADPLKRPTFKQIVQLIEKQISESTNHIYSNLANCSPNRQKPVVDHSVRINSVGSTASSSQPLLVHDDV
Read-out: enzyme activity
Action: inhibitor
Tested at: 0.5 µM
Relative to: control
Quantity: remaining activity
SMILES = O=C(CCCc1ccc(-c2ccccc2F)cc1)Nc1ccc(O)cc1; value = 96.3%
SMILES = COc1ccc(OC)c2c(=S)c3ccccc3[nH]c12; value = 78.6%
SMILES = O=C1NC(=O)C(c2cn(CCCn3ccnc3)c3ccccc23)=C1Nc1ccccc1; value = 90.2%
SMILES = O=S(=O)(c1cccc2cnccc12)N1CCCNCC1; value = 96.7%
SMILES = COc1ccc(C(=O)Nc2sc3c(c2C(N)=O)CCCC3)cc1OC; value = 46.2%
SMILES = NCCNc1ncc(C(N)=O)c(Nc2cccc(C(F)(F)F)c2)n1; value = 94.7%
SMILES = Oc1ccc(-c2nc(-c3ccncc3)c(-c3ccc(F)cc3)[nH]2)cc1; value = 97.7%
SMILES = COc1cc2nccc(Oc3ccc(NC(=S)NC(=O)c4ccccc4C)cc3)c2cc1OC; value = 34.5%
SMILES = Nc1[nH]nc2nc3ccccc3nc12; value = 100%
SMILES = C#Cc1cccc(Nc2ncnc3cc(OCCOC)c(OCCOC)cc23)c1; value = 98.1%
SMILES = Nc1ccc2ncnc(NCCc3ccc(Oc4ccccc4)cc3)c2c1; value = 99.7%
SMILES = Cn1c2ccccc2c2c3c(c4c5ccccc5n(CCC#N)c4c21)CNC3=O; value = 96.9%
SMILES = CCOC(=O)c1c(C)[nH]c(/C=C2\C(=O)Nc3ccccc32)c1C; value = 46.3%
SMILES = Cn1sc(=O)n(Cc2ccccc2)c1=O; value = 101%

Study 2
SMILES: Cn1cnc(Cn2ccc3ccc(CNCc4[nH]c5ccccc5c4[C@H]4NC(=O)c5ccc(O)cc54)cc32)c1
Target: GTPase KRas (KRAS, Homo sapiens, UniProt P01116, G12C)
Read-out: target engagement
Technique: BRET
Quantity: IC50
test system = HEK293 cells; value = 700 nM
test system = HEK293; conditions = 1 h; value = 870 nM
test system = HEK293; conditions = 3 h; value = 710 nM
test system = HEK293; conditions = 2 h; value = 660 nM

Study 3
SMILES: Cc1ccc(NC(=O)c2ccnc(C(F)(F)F)c2)cc1-c1cc(OCCO)nc(N2CCOCC2)c1
Read-out: binding
Tested at: 1 µM
Quantity: remaining binding
target = STK16 (Homo sapiens, UniProt O75716); value = 100%
target = DSTYK (Homo sapiens, UniProt Q6XUX3); value = 90%
target = CHEK1 (Homo sapiens, UniProt O14757); value = 100%
target = FLT4 (Homo sapiens, UniProt P35916); assay = competition with immobilised ligand; value = 79%
target = RIOK3 (Homo sapiens, UniProt O14730); value = 66%

Study 4
SMILES: CN([C@@H]1CCc2c(CC(=O)O)c3cc(S(C)(=O)=O)ccc3n2C1)S(=O)(=O)c1ccc(F)cc1
Tested at: 1 µM
Quantity: remaining binding
target = MAPK4 (Homo sapiens, UniProt P31152); assay = cell-free assay, competition with immobilised ligand; value = 100%
target = CDK4 (Homo sapiens, UniProt P11802); assay = cell-free assay, competition with immobilised ligand; value = 90%
target = PAK5 (Homo sapiens, UniProt Q9P286); assay = cell-free assay, competition with immobilised ligand; value = 100%
target = CHEK1 (Homo sapiens, UniProt O14757); assay = cell-free assay, competition with immobilised ligand; value = 100%
target = Tyrosine-protein kinase ABL1, phosphorylated (ABL1, Homo sapiens, UniProt P00519, F317I); assay = binding; value = 76%

For quick reference, copied from above (study 1):
SMILES = COc1ccc(OC)c2c(=S)c3ccccc3[nH]c12; value = 78.6%
SMILES = NCCNc1ncc(C(N)=O)c(Nc2cccc(C(F)(F)F)c2)n1; value = 94.7%
